Published values of several laboratories.
A part holds a random share of what one study measured. Changes are numbered by the printed parent chain.

Sample 1 — method: RNA Bind-n-Seq; form: RNA; medium: in vitro; tested at: 1 µM; setting: whole 134-nt RNA, ends assumed; with: 150 mM KCl; baseline: input library; direction: higher = stronger binding
Target: Ras GTPase-activating protein-binding protein 1, C-terminal RGG region (G3BP1, Homo sapiens, UniProt Q13283)
Sequence of UniProt Q13283 (whole entry, looked up): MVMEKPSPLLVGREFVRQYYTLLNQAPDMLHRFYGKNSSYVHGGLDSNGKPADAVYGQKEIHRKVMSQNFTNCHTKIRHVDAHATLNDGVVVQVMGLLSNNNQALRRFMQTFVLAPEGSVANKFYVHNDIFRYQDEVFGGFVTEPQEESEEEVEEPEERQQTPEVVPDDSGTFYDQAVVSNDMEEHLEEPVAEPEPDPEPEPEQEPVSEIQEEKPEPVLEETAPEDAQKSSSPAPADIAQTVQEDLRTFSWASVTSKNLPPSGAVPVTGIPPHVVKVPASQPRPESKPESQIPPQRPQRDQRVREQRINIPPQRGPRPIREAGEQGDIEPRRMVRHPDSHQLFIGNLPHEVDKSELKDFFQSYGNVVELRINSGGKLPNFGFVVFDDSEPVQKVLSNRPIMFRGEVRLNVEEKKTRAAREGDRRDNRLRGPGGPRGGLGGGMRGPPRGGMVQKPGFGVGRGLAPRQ
Strand | log2 enrichment
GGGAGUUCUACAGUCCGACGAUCCUGUGCUACACAUCGUAUGUACCGAAUCGGGGAAAAAAAGGGGUUUUUGGGGUUUUUGGGGAAAGUAUUAUGUUACGCCGUUCGGAUCUGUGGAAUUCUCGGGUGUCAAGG | 0.538
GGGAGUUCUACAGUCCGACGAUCCACAGACAACACGCACCCACACAGACACAGAGGGAAGGGGUUGCGAUGGGGACAGGGUGCACAGCAGGGCGGGGUAGGACCCCAGCCCCUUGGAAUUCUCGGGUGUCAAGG | -0.677
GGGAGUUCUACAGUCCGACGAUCUCCUGUGCUACACAUCGUAUGUACCGAAUCGGGGUUUUUGGGGUUUGGGGUUUUUGGGGAAAGUAUUAUGUUACGCCGUUCGGAUCUGCAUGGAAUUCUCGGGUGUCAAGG | 3.1
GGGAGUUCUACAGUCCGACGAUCUGGCCCUGGUGGCAUGCGGGGAGGAAGAGGUGGCCUCCUGGAUCGUGGUGGUCCCGGUGGAAUGUUCAGAGGUGGCCGUGGUGGAGACAGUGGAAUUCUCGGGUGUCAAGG | 2.14
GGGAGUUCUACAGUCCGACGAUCGUCCUGUGCUACACAUCGUAUGUACCGAAUCGGGGAAAAAGGGAAAAAGGGGAAAAAGGAAAGUAUUAUGUUACGCCGUUCGGAUCUGCAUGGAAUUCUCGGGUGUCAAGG | -1.07
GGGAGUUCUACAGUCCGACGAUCACCAUGCAGGUGGGCAUCUUUGGGAAGUGGGGCAAGGGGGGUAUAGGGAGGGGGGUAACACUUUGGGAACAGGUGGUCCCAGGUCGUUUCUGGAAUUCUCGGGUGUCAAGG | 2.06
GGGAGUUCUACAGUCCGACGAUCUAACUUUAGAGGAGGAUCUAAUGGAUAUGGCAGUGGACGUGGAUUUGGGGAUGGCUAUAAUGGGUAUGGAGGAGGACCUGGAGGUGGCAAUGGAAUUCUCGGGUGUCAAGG | -1.1
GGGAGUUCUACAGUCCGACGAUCCCUCAAGUCCUGUGCUACACAUCGUAUGUACCGAAUCGGGCGGGCGGCGGGGAAAGUAUUAUGUUACGCCGUUCGGAUCUGCACUUCCAGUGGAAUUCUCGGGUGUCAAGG | 0.382
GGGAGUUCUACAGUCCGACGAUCUUUUAGGAAGCUGCAGUAAAGGAAGAUGAAGAAGAAGUUUCAGAUAAGGGCAGUGAUUCUGAAGAAGAAGAAACCAAUAGAGAUUCCCAAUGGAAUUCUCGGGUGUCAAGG | -1.41

Sample 2 — target: CCND2, cyclin fold, Cln2 fusion (human); method: yeast growth competition, sequencing; medium: yeast; setting: weak parent motif; baseline: not given; direction: higher = stronger binding
Starting sequence: SCAPER docking peptide (human); SNARRSLNFGGST; partner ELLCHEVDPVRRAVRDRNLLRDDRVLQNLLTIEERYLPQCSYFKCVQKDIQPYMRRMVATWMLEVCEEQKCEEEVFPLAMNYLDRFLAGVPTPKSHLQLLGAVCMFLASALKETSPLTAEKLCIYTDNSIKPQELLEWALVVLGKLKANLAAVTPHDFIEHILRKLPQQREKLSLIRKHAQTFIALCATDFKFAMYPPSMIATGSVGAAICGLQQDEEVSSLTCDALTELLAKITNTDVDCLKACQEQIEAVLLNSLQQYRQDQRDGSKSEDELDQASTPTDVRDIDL
Variant | normalised enrichment score
GNARRSLNFGGST [S1G] | 0.126
SNARRSLNFGGSH [T13H] | 0.258
SNARRSLNFGGSS [T13S] | 0.34
SNARRSQNFGGST [L7Q] | 0.504
SNAFRSLNFGGST [R4F] | -0.138
SNARRSLQFGGST [N8Q] | 0.251
SNARRSLNFGGKT [S12K] | 0.473
SNARRSLNMGGST [F9M] | 0.819
SNARRSLNFGGSQ [T13Q] | 0.498
SNARRSLNFGGSA [T13A] | 0.36
SNARRSLNFGGSK [T13K] | 0.45
VNARRSLNFGGST [S1V] | 0.508

Sample 3 — target: UBE2I UBC core domain (UniProt P63279); method: yeast two-hybrid; medium: yeast; setting: mostly zero background; baseline: not given; direction: higher = stronger interaction
B1: RNF121 RING domain (UniProt Q9H920); chain MPTKHLSDSVCAVCGQQIFVDVSEEGIIENTYRLSCNHVFHEFCIRGWCIVGKKQTCPYCKEKVDLKRMFS
B2: RNF19A RING domain (UniProt Q9NV58); chain ISKQIGDFIECPLCLLRHSKDRFPDIMTCHHRSCVDCLRQYLRIEISESRVNISCPECTERFNPHDIR
B3: DZIP3 RING domain (UniProt Q86Y13); chain PDEEEEEEEPCVICHENLSPENLSVLPCAHKFHAQCIRPWLMQQGTCPTCRLHVLLPEEFP
B4: RNF133 RING domain (UniProt Q8WVZ7); chain DEEINPNGDSCVICFERYKPNDIVRILTCKHFFHKNCIDPWILPHGTCPICKCDILKVLGIQ
B5: RBCK1 RING domain (UniProt Q9BYM8); chain SLVLNTEPAECPVCYSVLAPGEAVVLRECLHTFCRECLQGTIRNSQEAEVSCPFIDNTYSCSGKLLEREIK
Sequence | lacZ reporter activity
GSDDEEIPFKCFICRQSFQNPVVTKCRHYFCESCALQHFRTTPRCYVCDQQTNGVFNPA (RNF113A RING domain (UniProt O15541)) | 0
B1 (RNF121 RING domain) | 0
KETIKKTTKPCPRCHVPVEKNGGCMHMKCPQPQCRLEWCWNCGCEWNRVCMG (PRKN RING domain (UniProt O60260)) | 0
B2 (RNF19A RING domain) | 0
B3 (DZIP3 RING domain) | 0
B4 (RNF133 RING domain) | 0
B5 (RBCK1 RING domain) | 0
KLRKLKEAMLCMVCCEEEINSTFCPCGHTVCCESCAAQLQSCPVCRSRVEHVQHVY (MYLIP RING domain (UniProt Q8WY64)) | 0
FDGDVDPDLKCALCHKVLEDPLTTPCGHVFCAGCVLPWVVQEGSCPARCRGRLSAKELN (PDZRN3 RING domain (UniProt Q9UPQ7)) | 0
YQNEVDDDLVCHICLQPLLQPLDTPCGHTFCYKCLRNFLQEKDFCPLDRKRLHFKLCKK (LNX2 RING domain (UniProt Q8N448)) | 0

Sample 4 — method: RNA Bind-n-Seq; form: RNA; medium: in vitro; tested at: 365 nM; baseline: no-protein control; direction: higher = stronger binding
Target: RNA binding protein fox-1 homolog 2, RRM domain, GST-SBP tag (RBFOX2, Homo sapiens, UniProt O43251-10, residues 100-194)
Setting: natural RNA segment, single round, ends assumed
Strand | RBNS enrichment (R)
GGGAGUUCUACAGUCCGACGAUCGUCCACUUUGGUCUGUAAGUAGGAUGCUUACGAGAAAUCAGUGAAGGUAAGCAGGGCUGCCACUGUGGCCACGUAACCCUUCAGGAACCAGUGCUGAAGAAUAAUGAGUGUGGAAUUCUCGGGUGCCAA | 0.425
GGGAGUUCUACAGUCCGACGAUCGCUCUGGAACAAUACCUGCAGUUAUUCUUCAGCUGUUUGGACAACUUAGAUUGGGUUUAUAACUAUUAGGAAUCACUGCACAGUUUAUUUGGGUUGUGUUUUGUGUCUGAUGGAAUUCUCGGGUGCCAA | 0.385
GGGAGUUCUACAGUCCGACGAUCACAUUUUUUUUUAAAUGGUCACAUUUCGUGCUUCUCGGAUUUCUGAGGAAAUAUUUUGUAUUGUAUAUUACAAUGAUCACUGGCUGAAAAUAUUGUUUUACAAUAGUUCUUGGAAUUCUCGGGUGCCAA | 0.497
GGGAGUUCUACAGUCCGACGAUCUGACCGAAGGCUGUGUGUGAAAGGGGAGAAAGACGAGACUUCCAGGCAGGGCUAUUCUUUUUAUUUCUGCGAGGGACAAGAGUCUGGCUUUUAAGCUGCAGCCCCGCUGUUGGAAUUCUCGGGUGCCAA | 0.822
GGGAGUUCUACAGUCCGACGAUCUGCUGAACUGUCAUAAAAUUUUUUCAACCCUUUAUUGUGAUUUCCAAUGUCUUGAAGUUUUAAGUGUUUUGACCAGUGUGUAAUGUUAAAUUCAGAGGCUACAGUAUAUCUGGAAUUCUCGGGUGCCAA | 0.599
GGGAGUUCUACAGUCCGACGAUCAAAAAAAAUUCCACUAGACCACCAUCCCUUUUGUUUUGGGAUUUUUUUUCAACCUUUUCCAUUUGCUGAGUGAAGAUGGUCACUAACUCUAUGCUGCAAUAACGGGAGAGUGGAAUUCUCGGGUGCCAA | 0.507
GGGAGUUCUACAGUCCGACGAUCUAGCUUAUAGCAGACCUUGAGCCUCCUUGGUUACAGCAGGUUGUGGAUAAGUUACAUCGGGCUUCAUCAUCUAUACCUCCAUUUUUUCCUCCAGUUUUUAAUUUACUUUCUGGAAUUCUCGGGUGCCAA | 0.691
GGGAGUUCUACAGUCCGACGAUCGACCACAUAAGAAGGCAAUUUUAGUGUAUUAAUCAUAGAUUAUUAUAAACUAUAAACUUAAGGGCAAGGAGUUUAUUACAAUGUAUCUUUAUUAAAACAAAAGGGUGUAUUGGAAUUCUCGGGUGCCAA | 0.424

For quick reference, copied from above (sample 1):
Strand | log2 enrichment
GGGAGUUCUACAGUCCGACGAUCCCUCAAGUCCUGUGCUACACAUCGUAUGUACCGAAUCGGGCGGGCGGCGGGGAAAGUAUUAUGUUACGCCGUUCGGAUCUGCACUUCCAGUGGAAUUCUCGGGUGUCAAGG | 0.382
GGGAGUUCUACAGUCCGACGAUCUUUUAGGAAGCUGCAGUAAAGGAAGAUGAAGAAGAAGUUUCAGAUAAGGGCAGUGAUUCUGAAGAAGAAGAAACCAAUAGAGAUUCCCAAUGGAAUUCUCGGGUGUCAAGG | -1.41
